Measured values from different studies.

SMILES	cell line	assay	setting	scale	measurement	value
C[n+]1ccc(-c2ccccc2)cc1	MN9D	cell growth or viability, MTT	16 h		IC50	118 µM
CCCCCc1cc(O)c2c(c1)OC(C)(C)c1ccc(C)cc1-2	SK-OV-3	cell growth or viability, MTT	72 h		IC50	30.6 µM
CC(O)(CS(=O)(=O)c1ccc(F)cc1)C(=O)Nc1ccc(C#N)c(C(F)(F)F)c1 (stereo not drawn)	LNCaP	PSA expression, antagonist	1 day, charcoal-stripped serum 3 days, added: 1 nM DHT		Ki	190 nM
C[C@]12CC[C@H]3[C@@H]([C@H](/C=C/C=C/C=C/[C@@H]4CC5=CC(=O)CC[C@]5(C)[C@H]5CC[C@]6(C)[C@H](O)CC[C@H]6[C@H]45)CC4=CC(=O)CC[C@@]43C)[C@@H]1CC[C@H]2O (relative stereo)	LNCaP		added: testosterone or dihydrotestosterone		complete growth inhibition	0.25 to 0.5 µM
CO/C1=C\C(C)=C\[C@@H](C)[C@@H](O)[C@@H](C)C/C(C)=C/C=C/[C@H](OC)[C@@H]([C@@H](C)[C@@H](O)[C@H](C)[C@@]2(O)C[C@@H](O)[C@H](C)[C@@H](C(C)C)O2)OC1=O	human dendritic cells	item: phagosomal pH	concentration not given	reference: DMSO	fluorescein fluorescence increase	2 fold
Cc1c(Cc2ccc(F)cc2F)c(=O)n2c([nH]c3ccccc32)c1C#N	Vero	cell growth or viability			IC50	8 µg/mL
CC(O)(CS(=O)(=O)c1ccc(F)cc1)C(=O)Nc1ccc(C#N)c(C(F)(F)F)c1 (stereo not drawn)	LAPC4	cell growth or viability, ATP luminescence			IC50	1.3 µM
Cc1c(Cc2ccc(F)cc2)c(=O)n2c([nH]c3ccccc32)c1C#N	Vero	cell growth or viability			IC50	16 µg/mL
Nc1cc(I)c(I)cc1N	MRC5	cell growth or viability	72 h		IC50	150 µM

A few entries again:
SMILES	cell line	assay	setting	scale	measurement	value
Cc1c(Cc2ccc(F)cc2F)c(=O)n2c([nH]c3ccccc32)c1C#N	Vero	cell growth or viability			IC50	8 µg/mL
